# Experimental data from different studies.
# Amino acid sequences for entries named in this document (tags omitted). Residues count along the entry.
# UniProt P28867, 231-280 limits assumed: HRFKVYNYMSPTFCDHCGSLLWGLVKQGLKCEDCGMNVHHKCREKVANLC
# UniProt Q16539, whole entry: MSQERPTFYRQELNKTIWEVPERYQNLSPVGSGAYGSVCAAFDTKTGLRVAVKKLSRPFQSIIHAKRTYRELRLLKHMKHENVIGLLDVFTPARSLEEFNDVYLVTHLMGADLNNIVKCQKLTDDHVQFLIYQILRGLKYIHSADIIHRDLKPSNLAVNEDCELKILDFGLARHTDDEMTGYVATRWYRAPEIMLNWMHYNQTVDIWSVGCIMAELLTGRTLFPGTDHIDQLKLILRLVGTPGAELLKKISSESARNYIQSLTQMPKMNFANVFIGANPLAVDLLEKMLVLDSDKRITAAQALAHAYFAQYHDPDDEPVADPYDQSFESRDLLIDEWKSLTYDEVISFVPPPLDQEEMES
# UniProt Q04609, whole entry: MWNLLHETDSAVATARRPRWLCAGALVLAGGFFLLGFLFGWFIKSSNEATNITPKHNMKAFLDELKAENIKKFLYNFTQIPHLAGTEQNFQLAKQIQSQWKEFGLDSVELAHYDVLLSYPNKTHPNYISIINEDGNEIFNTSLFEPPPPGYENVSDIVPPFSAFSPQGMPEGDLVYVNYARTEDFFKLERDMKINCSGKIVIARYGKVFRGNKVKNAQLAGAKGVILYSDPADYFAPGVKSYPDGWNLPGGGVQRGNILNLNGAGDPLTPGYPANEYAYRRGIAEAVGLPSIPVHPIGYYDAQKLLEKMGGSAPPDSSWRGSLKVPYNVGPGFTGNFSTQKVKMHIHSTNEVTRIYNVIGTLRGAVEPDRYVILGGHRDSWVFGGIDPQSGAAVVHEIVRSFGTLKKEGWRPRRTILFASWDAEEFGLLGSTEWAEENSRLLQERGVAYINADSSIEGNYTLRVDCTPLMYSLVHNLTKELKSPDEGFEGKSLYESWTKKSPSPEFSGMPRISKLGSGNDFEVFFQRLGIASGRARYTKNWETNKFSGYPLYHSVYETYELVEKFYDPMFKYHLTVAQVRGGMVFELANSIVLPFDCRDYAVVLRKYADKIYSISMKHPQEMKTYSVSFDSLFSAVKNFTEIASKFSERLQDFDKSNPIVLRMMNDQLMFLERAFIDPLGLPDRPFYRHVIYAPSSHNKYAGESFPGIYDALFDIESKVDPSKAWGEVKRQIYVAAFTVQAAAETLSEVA
# UniProt P29275, whole entry: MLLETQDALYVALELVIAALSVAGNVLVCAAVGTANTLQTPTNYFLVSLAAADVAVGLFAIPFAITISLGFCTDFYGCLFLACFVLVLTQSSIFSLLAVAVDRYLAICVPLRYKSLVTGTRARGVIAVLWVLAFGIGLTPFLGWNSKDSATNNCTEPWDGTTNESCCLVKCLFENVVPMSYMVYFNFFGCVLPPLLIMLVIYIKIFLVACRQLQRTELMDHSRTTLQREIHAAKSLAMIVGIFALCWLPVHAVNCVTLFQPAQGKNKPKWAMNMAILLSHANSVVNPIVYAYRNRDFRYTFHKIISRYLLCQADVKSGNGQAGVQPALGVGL
# UniProt P08246, 30-247 limits assumed: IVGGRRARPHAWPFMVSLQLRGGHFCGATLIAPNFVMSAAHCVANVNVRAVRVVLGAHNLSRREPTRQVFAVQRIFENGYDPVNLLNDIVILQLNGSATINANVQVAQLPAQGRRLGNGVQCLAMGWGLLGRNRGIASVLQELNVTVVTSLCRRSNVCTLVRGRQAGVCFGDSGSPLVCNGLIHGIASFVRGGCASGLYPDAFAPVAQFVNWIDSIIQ
# UniProt P30419, whole entry: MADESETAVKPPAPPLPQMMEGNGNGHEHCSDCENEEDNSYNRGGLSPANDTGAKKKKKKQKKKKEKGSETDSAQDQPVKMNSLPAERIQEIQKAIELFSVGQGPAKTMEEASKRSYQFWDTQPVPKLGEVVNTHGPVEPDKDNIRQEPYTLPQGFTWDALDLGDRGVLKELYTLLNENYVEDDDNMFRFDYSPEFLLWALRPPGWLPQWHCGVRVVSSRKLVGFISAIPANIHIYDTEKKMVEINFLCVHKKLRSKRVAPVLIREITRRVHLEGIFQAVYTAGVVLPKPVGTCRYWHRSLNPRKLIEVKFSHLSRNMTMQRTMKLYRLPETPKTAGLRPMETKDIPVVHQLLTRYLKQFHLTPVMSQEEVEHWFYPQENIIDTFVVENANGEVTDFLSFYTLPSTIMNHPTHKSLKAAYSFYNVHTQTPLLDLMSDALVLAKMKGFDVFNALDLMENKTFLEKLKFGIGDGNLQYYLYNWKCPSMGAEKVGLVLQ
# UniProt Q9NSY1, 38-345 limits assumed: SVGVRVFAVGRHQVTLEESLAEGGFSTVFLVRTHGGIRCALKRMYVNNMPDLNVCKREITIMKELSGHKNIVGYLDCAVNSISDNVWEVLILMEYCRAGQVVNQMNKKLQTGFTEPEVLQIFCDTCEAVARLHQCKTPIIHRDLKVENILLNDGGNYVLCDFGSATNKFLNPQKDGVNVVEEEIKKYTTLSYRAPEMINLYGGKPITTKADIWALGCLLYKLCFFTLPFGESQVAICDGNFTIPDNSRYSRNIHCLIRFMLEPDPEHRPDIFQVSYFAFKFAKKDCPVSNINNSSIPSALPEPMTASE
# UniProt P42264, 32-919 limits assumed: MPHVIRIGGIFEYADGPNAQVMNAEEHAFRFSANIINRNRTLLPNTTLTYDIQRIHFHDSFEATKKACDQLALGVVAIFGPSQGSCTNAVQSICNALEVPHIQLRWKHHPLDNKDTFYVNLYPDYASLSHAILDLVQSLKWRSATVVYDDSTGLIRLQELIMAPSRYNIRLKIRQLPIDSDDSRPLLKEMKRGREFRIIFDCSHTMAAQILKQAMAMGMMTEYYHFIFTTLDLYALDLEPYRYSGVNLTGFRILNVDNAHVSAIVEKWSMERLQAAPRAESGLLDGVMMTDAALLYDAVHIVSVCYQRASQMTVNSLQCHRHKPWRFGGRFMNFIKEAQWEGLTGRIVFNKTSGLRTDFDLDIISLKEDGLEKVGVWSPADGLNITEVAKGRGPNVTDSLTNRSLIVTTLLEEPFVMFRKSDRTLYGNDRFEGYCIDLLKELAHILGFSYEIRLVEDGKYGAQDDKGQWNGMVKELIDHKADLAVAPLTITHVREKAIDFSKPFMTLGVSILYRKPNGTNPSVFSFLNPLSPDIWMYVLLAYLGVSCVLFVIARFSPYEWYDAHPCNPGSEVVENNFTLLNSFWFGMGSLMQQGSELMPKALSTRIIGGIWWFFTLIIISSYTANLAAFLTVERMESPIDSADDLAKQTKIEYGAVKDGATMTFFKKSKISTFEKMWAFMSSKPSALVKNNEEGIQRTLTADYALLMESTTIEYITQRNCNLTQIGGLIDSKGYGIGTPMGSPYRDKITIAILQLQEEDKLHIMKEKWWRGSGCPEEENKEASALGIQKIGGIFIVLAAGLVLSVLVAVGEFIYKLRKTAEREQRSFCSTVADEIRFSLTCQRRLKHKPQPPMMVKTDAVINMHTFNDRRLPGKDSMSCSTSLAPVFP
# UniProt P22756, 31-920 isoform 4 limits assumed: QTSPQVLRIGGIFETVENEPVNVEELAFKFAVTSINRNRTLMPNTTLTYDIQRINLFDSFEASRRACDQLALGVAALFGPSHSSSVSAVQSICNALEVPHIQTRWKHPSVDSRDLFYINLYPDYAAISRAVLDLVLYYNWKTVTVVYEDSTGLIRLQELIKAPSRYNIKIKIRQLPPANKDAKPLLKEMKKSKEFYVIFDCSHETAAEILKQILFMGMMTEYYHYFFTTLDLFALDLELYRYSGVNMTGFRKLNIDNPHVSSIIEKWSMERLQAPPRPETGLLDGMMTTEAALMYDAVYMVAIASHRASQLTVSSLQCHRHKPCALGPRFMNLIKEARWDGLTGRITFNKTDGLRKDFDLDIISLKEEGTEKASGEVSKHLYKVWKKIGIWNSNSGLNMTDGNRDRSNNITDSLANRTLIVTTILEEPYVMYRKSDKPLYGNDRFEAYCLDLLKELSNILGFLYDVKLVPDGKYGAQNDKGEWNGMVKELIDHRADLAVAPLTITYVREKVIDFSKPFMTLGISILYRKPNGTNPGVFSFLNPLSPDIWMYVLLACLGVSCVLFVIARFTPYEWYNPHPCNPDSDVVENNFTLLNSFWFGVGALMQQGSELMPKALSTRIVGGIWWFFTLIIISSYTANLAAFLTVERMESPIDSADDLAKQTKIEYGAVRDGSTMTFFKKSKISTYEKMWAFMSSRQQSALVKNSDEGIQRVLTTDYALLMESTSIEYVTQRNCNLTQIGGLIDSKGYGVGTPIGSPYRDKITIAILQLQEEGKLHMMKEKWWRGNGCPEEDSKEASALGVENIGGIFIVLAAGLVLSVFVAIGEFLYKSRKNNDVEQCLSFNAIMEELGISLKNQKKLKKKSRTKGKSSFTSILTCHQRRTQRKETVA
# UniProt P45983, 1-384 isoform 3: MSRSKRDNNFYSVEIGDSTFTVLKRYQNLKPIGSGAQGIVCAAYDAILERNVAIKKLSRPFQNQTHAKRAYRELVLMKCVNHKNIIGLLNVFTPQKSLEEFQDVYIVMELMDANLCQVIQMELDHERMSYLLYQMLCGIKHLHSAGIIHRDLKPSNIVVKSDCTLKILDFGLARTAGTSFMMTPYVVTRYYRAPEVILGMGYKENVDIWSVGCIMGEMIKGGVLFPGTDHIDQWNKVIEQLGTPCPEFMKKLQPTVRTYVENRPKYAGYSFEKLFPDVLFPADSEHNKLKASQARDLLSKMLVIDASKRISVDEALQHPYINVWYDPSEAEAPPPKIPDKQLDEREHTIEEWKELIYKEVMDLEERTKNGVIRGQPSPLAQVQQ
# UniProt Q01959, whole entry: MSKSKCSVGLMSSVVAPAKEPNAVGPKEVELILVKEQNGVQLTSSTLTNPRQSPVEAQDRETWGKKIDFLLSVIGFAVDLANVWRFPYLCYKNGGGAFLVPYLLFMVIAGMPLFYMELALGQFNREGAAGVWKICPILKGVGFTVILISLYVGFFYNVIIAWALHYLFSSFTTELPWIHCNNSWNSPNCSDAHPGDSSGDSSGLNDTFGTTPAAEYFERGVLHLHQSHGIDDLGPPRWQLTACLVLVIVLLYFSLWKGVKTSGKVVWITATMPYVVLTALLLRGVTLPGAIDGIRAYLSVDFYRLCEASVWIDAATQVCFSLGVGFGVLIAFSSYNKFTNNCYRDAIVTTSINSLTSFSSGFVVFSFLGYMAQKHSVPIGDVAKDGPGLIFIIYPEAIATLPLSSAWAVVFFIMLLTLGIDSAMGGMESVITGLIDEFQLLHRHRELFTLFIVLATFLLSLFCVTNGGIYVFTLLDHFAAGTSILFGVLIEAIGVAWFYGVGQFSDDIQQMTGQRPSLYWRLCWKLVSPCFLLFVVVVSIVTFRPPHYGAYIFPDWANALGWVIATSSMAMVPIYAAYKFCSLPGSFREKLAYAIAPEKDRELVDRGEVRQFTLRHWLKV
# UniProt Q9EP80, whole entry: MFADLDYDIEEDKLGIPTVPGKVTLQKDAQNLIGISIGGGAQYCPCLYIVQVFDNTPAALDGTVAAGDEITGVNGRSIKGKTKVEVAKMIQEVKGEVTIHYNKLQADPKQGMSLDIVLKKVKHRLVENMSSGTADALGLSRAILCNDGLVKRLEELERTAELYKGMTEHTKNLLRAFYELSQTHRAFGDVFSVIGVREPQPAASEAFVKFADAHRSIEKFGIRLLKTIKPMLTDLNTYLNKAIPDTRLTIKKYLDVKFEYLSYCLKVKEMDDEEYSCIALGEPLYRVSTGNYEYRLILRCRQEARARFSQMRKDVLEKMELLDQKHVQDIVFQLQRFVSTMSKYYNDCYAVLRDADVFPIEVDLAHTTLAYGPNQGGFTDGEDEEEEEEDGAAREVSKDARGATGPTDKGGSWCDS
# Each line is one published result; not all experiments were run side by side. ± gives the spread as reported.
# Prkcd C1b domain: Protein kinase C delta type, C1b domain (Prkcd, Mus musculus, UniProt P28867)
# MAPK14: Mitogen-activated protein kinase 14 (MAPK14, Homo sapiens, UniProt Q16539)
Structure (SMILES),tested on,assay,test system,setting,scale,quantity,value
CC[N+]1=C(C=CC=CC=C2N(CCCCCC(=O)NCCOCCOCC(=O)NCCCC[C@H](NC(=O)N[C@@H](CCC(=O)O)C(=O)O)C(=O)O)c3ccc4c(S(=O)(=O)O)cc(S(=O)(=O)O)cc4c3C2(C)C)C(C)(C)c2c1ccc1c(S(=O)(=O)O)cc(S(=O)(=O)[O-])cc21,"Glutamate carboxypeptidase 2 (FOLH1, Homo sapiens, UniProt Q04609)","enzyme activity, inhibitor",,"compound in water, with: [3H]NAAG 30 nM",,Ki,0.05 ± 0.02 nM
CC(C)C[C@H](NC(=O)c1cc(C(=O)O)cc([C@H]2CCN[C@@H]2C(=O)O)c1)C(=O)O,NMDA receptor (rat),"binding, radioligand binding",rat cortical synaptosomes,with: [3H]CGP39653,,Ki,3900 nM
CCCCCCCCC(CCC=CCCC(CCCCCCCC)C(=O)OCC1(CO)CC(=C(C)C)C(=O)O1)C(=O)OCC1(CO)CC(=C(C)C)C(=O)O1 (racemic),Prkcd C1b domain,"binding, [3H]PDBu competition",,"5 min, 37 °C, with: phosphatidylserine 100 µg/mL",,Ki,2.07 ± 0.08 nM
COc1cccc(-c2c(C#N)c(N)nc(SCc3ncc[nH]3)c2C#N)c1,"Adenosine receptor A2b (ADORA2B, Homo sapiens, UniProt P29275)",radioligand displacement,HEK293 membranes,with: 25 nM [3H]NECA,,Ki,38 ± 21 nM
O=C(Nc1cccc(F)c1)c1cc(S(=O)(=O)N2CCOCC2)c(Cl)cc1Cl,"Autotaxin (ENPP2, Homo sapiens, UniProt Q13822)",enzyme activity,,with: FS-3,,Ki,14.6 nM
COC(=O)C1(C)C=C(c2ncc(C)o2)C(=O)CC1 (stereo not shown),MAPK14,"D-peptide displacement, fluorescence polarization",,,,Ki,21200 ± 2800 nM
CCCCC(=O)n1ncc(=O)c2ccccc21,"Neutrophil elastase (ELANE, Homo sapiens, UniProt P08246)","enzyme activity, inhibitor, Dixon and Lineweaver-Burk plots",,,,Ki,110 nM
O=C(OCc1ccccc1)c1cccc(OC2CCNCC2)c1,"Glycylpeptide N-tetradecanoyltransferase 1 (NMT1, Homo sapiens, UniProt P30419)","enzyme activity, inhibitor, CPM fluorescence",,,,Ki,> 100000 nM
COc1cc(Nc2ccnc3cc(-c4ccncc4)ccc23)cc(OC)c1OC,"BMP-2-inducible protein kinase (BMP2K, Homo sapiens, UniProt Q9NSY1)",,,,,Ki,8600 nM
CC(C)[C@H](NC(=O)c1cc(C(=O)O)cc([C@H]2CCN[C@@H]2C(=O)O)c1)C(=O)O,"Glutamate receptor ionotropic, kainate 3 (Rattus norvegicus, UniProt P42264)","binding, radioligand binding",Sf9 membranes,"homomeric receptor, with: [3H]kainate",,Ki,5800 ± 540 nM
COC(=O)[C@@H]1C(C=Nc2cncnc2NC(C)=O)=Cc2cc3c(cc2[C@H]1c1cc(OC)c(OC)c(OC)c1)OCO3,Leishmania infantum,iRFP fluorescence,"mouse splenocytes infected, amastigote, iRFP, ex vivo splenic explant",48 h,,EC50,15600 ± 800 nM
N=C(N)NCCC[C@H](NC(=O)c1cc(C(=O)O)cc([C@H]2CCN[C@@H]2C(=O)O)c1)C(=O)O,"Glutamate receptor ionotropic, kainate 1 (Rattus norvegicus, UniProt P22756)","binding, radioligand binding",Sf9 membranes,"homomeric receptor, with: [3H]SYM2081",,Ki,2650 ± 1060 nM
COC(=O)[C@@]1(C)C=C(C(=O)Nc2cccc(C(=O)NC34CC(Nc5nccc(-c6cccnc6)n5)(C3)C4)c2)C(=O)CC1,"Mitogen-activated protein kinase 8 (MAPK8, Homo sapiens, UniProt P45983)","kinase activity, inhibitor",,"0.006774 µM, unit not given, with: 10 mM GSH",reference: DMSO,remaining activity,0.692
Cc1cccc(CSc2nc(N)c(C#N)c(-c3cccc(F)c3)c2C#N)n1,"Adenosine receptor A2a (ADORA2A, Homo sapiens, UniProt P29274)",radioligand competition binding,HEK293 membranes,"1 h, 25 °C, with: [3H]ZM241385 0.8 nM",,Ki,72 ± 24 nM
CCCSc1nc(N[C@@H]2C[C@H]2c2ccc(F)c(F)c2)c2nnn([C@@H]3C[C@H](O)[C@@H](O)[C@H]3O)c2n1,"Sodium-dependent dopamine transporter (SLC6A3, Homo sapiens, UniProt Q01959)",binding,CHO,,,Ki,800 nM
CCCCCCCCC(CCCCCCC=CCCCCCCC(CCCCCCCC)C(=O)OCC1(CO)CC(=C(C)C)C(=O)O1)C(=O)OCC1(CO)CC(=C(C)C)C(=O)O1 (racemic),Prkcd C1b domain,"binding, [3H]PDBu competition",,"5 min, 37 °C, with: phosphatidylserine 100 µg/mL",,Ki,1.86 ± 0.41 nM
CCOC(=O)NC(=O)/C(C#N)=C/c1ccc(OC)cc1,"PRKCA-binding protein, PDZ domain (Pick1, Rattus norvegicus, UniProt Q9EP80)","binding, fluorescence polarization",,with: labelled hDAT C-terminal peptide,,Ki,89000 ± 20000 nM
COC(=O)[C@]1(C)C=C(C(=O)OCc2ccccc2)C(=O)CC1,MAPK14,"D-peptide displacement, fluorescence polarization",,,,Ki,5500 ± 600 nM
COC(=O)[C@@H]1C(C=Nc2cc(C)ccc2O)=Cc2cc3c(cc2[C@H]1c1cc(OC)c(OC)c(OC)c1)OCO3,Leishmania,,mouse splenocytes,,reference: CC50 over amastigote EC50,selectivity index,0.5

# A few entries again:
Structure (SMILES),tested on,assay,test system,setting,scale,quantity,value
COc1cccc(-c2c(C#N)c(N)nc(SCc3ncc[nH]3)c2C#N)c1,"Adenosine receptor A2b (ADORA2B, Homo sapiens, UniProt P29275)",radioligand displacement,HEK293 membranes,with: 25 nM [3H]NECA,,Ki,38 ± 21 nM
O=C(Nc1cccc(F)c1)c1cc(S(=O)(=O)N2CCOCC2)c(Cl)cc1Cl,"Autotaxin (ENPP2, Homo sapiens, UniProt Q13822)",enzyme activity,,with: FS-3,,Ki,14.6 nM
